Experimental data of several laboratories.
“And” joins repeats or separate records; there may be more than shown. pEC50, pIC50, pKd: −log10 of the molar value. In brackets after ≈: the same amount, converted by molar mass.
USP20 ZnF-UBD domain: Ubiquitin carboxyl-terminal hydrolase 20, ZnF-UBD domain (USP20, Homo sapiens, UniProt Q9Y2K6)
Chain of UniProt Q9Y2K6 (whole entry, looked up): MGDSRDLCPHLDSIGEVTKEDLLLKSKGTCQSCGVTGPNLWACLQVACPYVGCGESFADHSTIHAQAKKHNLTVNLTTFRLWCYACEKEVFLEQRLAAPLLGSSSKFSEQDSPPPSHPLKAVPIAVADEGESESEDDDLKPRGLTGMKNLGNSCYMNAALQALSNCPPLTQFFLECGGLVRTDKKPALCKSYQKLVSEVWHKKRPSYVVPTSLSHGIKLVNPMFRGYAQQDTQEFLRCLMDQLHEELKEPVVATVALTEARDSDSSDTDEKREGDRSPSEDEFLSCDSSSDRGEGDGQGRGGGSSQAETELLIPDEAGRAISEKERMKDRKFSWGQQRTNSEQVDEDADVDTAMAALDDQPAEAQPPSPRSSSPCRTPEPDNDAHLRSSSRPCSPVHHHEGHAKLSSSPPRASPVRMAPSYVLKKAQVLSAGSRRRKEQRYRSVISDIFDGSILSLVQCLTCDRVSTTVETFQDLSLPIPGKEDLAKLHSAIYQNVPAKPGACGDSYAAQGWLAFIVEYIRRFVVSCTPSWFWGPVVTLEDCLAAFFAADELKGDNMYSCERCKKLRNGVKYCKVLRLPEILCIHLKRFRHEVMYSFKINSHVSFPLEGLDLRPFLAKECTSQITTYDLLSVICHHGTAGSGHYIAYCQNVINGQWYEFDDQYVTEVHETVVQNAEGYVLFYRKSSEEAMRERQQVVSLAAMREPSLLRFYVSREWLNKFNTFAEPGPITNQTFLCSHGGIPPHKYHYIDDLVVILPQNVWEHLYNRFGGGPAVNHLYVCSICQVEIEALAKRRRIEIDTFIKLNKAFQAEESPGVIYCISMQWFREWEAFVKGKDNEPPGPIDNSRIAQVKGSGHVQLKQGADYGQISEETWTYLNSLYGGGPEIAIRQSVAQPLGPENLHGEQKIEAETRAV
Chain of UniProt P49840 (whole entry, looked up): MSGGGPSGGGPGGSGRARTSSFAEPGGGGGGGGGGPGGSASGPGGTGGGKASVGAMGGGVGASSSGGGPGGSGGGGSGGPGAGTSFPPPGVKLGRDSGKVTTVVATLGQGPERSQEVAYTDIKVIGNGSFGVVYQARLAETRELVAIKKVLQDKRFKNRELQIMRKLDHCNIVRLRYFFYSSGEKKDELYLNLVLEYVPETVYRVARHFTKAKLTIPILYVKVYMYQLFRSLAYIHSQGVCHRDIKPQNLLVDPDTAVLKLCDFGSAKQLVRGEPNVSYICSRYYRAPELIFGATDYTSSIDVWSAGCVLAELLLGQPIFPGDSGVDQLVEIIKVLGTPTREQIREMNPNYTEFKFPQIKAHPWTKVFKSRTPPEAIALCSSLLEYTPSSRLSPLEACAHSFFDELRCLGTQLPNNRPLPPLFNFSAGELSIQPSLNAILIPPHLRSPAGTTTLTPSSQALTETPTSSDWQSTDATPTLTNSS

N#Cc1ccn2c(-c3ccncc3)c(-c3ccc(F)cc3)nc2c1 — result for “log2 fold change”: -0.133 (orf19.3456 kinase Candida albicans; MIB/MS competition binding; Candida albicans cell lysate; 100 nM; baseline: DMSO, lower = stronger binding).
With NS(=O)(=O)c1ccc(NCC(=O)O)cc1 the pKd was less than 3.00 (USP20 ZnF-UBD domain).
For CC(=O)N[C@@H](CC(=O)O)C(=O)O, “z-scored log2 fold change” read 0.238 (binding, equilibrium dialysis LC-MS; 5 µM, thermostabilized A2AR-BRIL construct; baseline: no-protein control, direction not given).
With Cc1ccc(Nc2nccc(N(C)c3ccc4c(C)n(C)nc4c3)n2)cc1S(N)(=O)=O the beat amplitude was 104% (iCell Cardiomyocytes (hiPSC-derived); xCELLigence Cardio impedance; concentration not given, 2 h; baseline: control).
NC(=O)c1cnc2[nH]ccc2c1N[C@@H]1[C@@H]2CC3C[C@H]1C[C@@](O)(C3)C2 — result for “change from baseline”: -0.28% (flow cytometry, item: CD8+ central memory T cells; Japanese healthy subjects, peripheral blood; oral, 10 mg twice daily, day 7).
With CS(=O)(=O)CCNCc1ccc(-c2ccc3ncnc(Nc4ccc(OCc5cccc(F)c5)c(Cl)c4)c3c2)o1 the inhibition was 9.7% (NLRP3 inflammasome (mouse); mouse BMDM; 10 µM).
With CN1CCN(c2ccc3nc(-c4c(N)c5c(F)cccc5[nH]c4=O)[nH]c3c2)CC1 the cell index was 106% (iCell Cardiomyocytes (hiPSC-derived); cellular impedance; concentration not given, 24 h; baseline: control).
O=C(Nc1ccc([N+](=O)[O-])cc1Cl)c1cc(Cl)ccc1O has a selectivity index of 52.6 (human alphaherpesvirus 1; primary human fibroblasts, K26 GFP; baseline: CC50 over IC50).
The inhibition of CCCc1nn(C)c2c(=O)[nH]c(-c3cc(S(=O)(=O)N4CCN(C)CC4)ccc3OCC)nc12 is reported as -27.9% and -33.2% (Cryptosporidium parvum; parasite growth, immunofluorescence imaging; HCT-8, Iowa; 8.22 nM).
With Nc1nc(-c2ccccc2)nc2[nH]nc(Nc3ccc(C(F)(F)F)cc3)c12 the clinical score was 0.22 (coxsackievirus B3; 31-1-93, NMRI mice, CVB3 chronic myocarditis; oral, 100 mg/kg twice daily, day 3, dosed days 1 to 7, score scale 0 to 7; direction not given).
The selectivity index of C=CC(=O)N1CC/C(=C\c2ccc(F)c([N+](=O)[O-])c2)C(=O)/C(=C/c2ccc(F)c([N+](=O)[O-])c2)C1 is reported as 1.43 (human alphaherpesvirus 1; primary human keratinocytes, K26 GFP; baseline: CC50 over IC50).
O=C(O)CCC(=O)Nc1cccc2ccccc12 gave a pKd of less than 3.00 (USP20 ZnF-UBD domain).
For O=C(O)[C@@H]1CCCCN1, “z-scored log2 fold change” read 0.176 (binding, equilibrium dialysis LC-MS; 5 µM, thermostabilized A2AR-BRIL construct; baseline: no-protein control, direction not given).
With CC(C)NCC(O)c1ccc(O)c(O)c1 (stereo not drawn) the sarcomere length was 1.51 µm (ventricular cardiomyocytes, C57BL/6 mouse; dose not given, 0.504 s).
With CCS(=O)(=O)N1CCN(c2ccc(Nc3ncc(C(N)=O)c(NC4CC4)n3)cc2)CC1 the inhibition was 16% (NLRP3 inflammasome (mouse); mouse BMDM; 10 µM).
CC[C@@H]1[C@H](F)C(=O)N[C@@H]1COc1nccc2cc(C(N)=O)c(OC)cc12 has an inhibition of -6.7% (GSK3A (Homo sapiens, UniProt P49840); ATP-site probe binding, ActivX profiling; THP-1 cell lysate; 0.04 mM, Lys2 site).
O=C(/C=C\n1cnc(-c2cc(C(F)(F)F)cc(C(F)(F)F)c2)n1)NNc1ccccn1 has a pIC50 of 6.82 (human alphaherpesvirus 1; viral replication, GFP signal; K26 GFP, 3D skin equivalent, air-liquid; 48 h).
CS(=O)(=O)N1CCN(Cc2cc3nc(-c4cccc5[nH]ncc45)nc(N4CCOCC4)c3s2)CC1 has a beat rate of 88.9% (iCell Cardiomyocytes (hiPSC-derived); xCELLigence Cardio impedance; concentration not given, 2 h; baseline: control).
Nc1ccn([C@@H]2O[C@H](CO)[C@@H](O)C2(F)F)c(=O)n1 has a pIC50 of 7.30 (human alphaherpesvirus 1; live-cell GFP imaging; primary human fibroblasts, K26 GFP).
Under “z-scored log2 fold change”, Nc1nc2c(ncn2[C@@H]2O[C@H](COP(=O)(O)OP(=O)(O)O[C@H]3O[C@H](CO)[C@@H](O)[C@H](O)[C@@H]3O)[C@@H](O)[C@H]2O)c(=O)[nH]1 is recorded as 0.111 (binding, equilibrium dialysis LC-MS; 5 µM, thermostabilized A2AR-BRIL construct; baseline: no-protein control, direction not given).
For CN(C)C/C=C/C(=O)Nc1cc2c(Nc3ccc(F)c(Cl)c3)ncnc2cc1O[C@H]1CCOC1, the inhibition was 87.3% (NLRP3 inflammasome (mouse); mouse BMDM; 10 µM).
With Oc1cccc(-c2nc(N3CCOCC3)c3oc4ncccc4c3n2)c1 the ATP level was 69.6% (iCell Cardiomyocytes (hiPSC-derived); CellTiter-Glo; concentration not given, 24 h; baseline: control).
OC(CCN1CCCCC1)(c1ccccc1)C1CC2C=CC1C2 (stereo not drawn): “EEG theta power, O1 Pz” 7.4 µV² (resting-state EEG; healthy elderly humans; oral, 4 mg, eyes closed, LS mean).
The inhibition of Cc1ccc(C(=O)Nc2ccc(Oc3cc4cnn(C)c4cc3-c3cn[nH]c3)c(F)c2)c(=O)n1-c1ccc(F)cc1 is reported as 29.4% (NLRP3 inflammasome (mouse); mouse BMDM; 10 µM).
Under “fold change in expression”, Cn1cc(-c2ccc(-c3cncc(Cl)c3N3CCC4(CCNC4=O)CC3)cc2)cn1 is recorded as 2.98 (COLO 205; microarray, item: CDKN1A; concentration not given, 6 h, gene set p21; baseline: untreated cells).
CC(C)C[C@H](NC(=O)C[C@H](O)[C@H](CC(C)C)NC(=O)[C@H](Cc1c[nH]cn1)NC(=O)CNC(=O)[C@@H](NC(=O)[C@H](C)NC(=O)[C@H](Cc1c[nH]c2ccccc12)NC(=O)[C@H](CCC(N)=O)NC(=O)[C@@H](Cc1ccccc1)NC(=O)COCCOCCNC(=O)CCC(C(=O)O)N1CCN(CC(=O)O)CCN(CC(=O)O)CCN(CC(=O)O)CC1)C(C)C)C(N)=O (stereo partly drawn) [lutetium-177 labelled] gave a tissue uptake of 0.05 %ID/g (female BALB/c nu/nu mice, spleen; intravenous, 50 pmol, 24 h).
The inhibition of CNC(=O)CN1CCC(Oc2cc3c(Nc4cccc(Cl)c4F)ncnc3cc2OC)CC1 is reported as -54.1% (NLRP3 inflammasome (mouse); mouse BMDM; 10 µM).
For c1coc(-c2n[nH]cc2-c2ccnc3ccccc23)c1, “log2 fold change” read -0.22 (orf19.6492 Candida albicans; kinase binding, MIB/MS competition; Candida albicans lysate; 1 µM; baseline: DMSO).
Under “z-scored log2 fold change”, NCCCCN=C(N)N is recorded as 0.426 (binding, equilibrium dialysis LC-MS; 5 µM, thermostabilized A2AR-BRIL construct; baseline: no-protein control, direction not given).
COc1cc(Nc2c(C#N)cnc3cc(OCCCN4CCN(C)CC4)c(OC)cc23)c(Cl)cc1Cl gave a cell index of 112% (iCell Cardiomyocytes (hiPSC-derived); cellular impedance; concentration not given, 24 h; baseline: control).
NC[C@H](O)c1ccc(O)c(O)c1 — result for “z-scored log2 fold change”: 0.0769 (binding, equilibrium dialysis LC-MS; 5 µM, thermostabilized A2AR-BRIL construct; baseline: no-protein control, direction not given).
COc1cc2c(N3CCN(C(=O)Nc4ccc(OC(C)C)cc4)CC3)ncnc2cc1OCCCN1CCCCC1 has an inhibition of 21.3% (NLRP3 inflammasome (mouse); mouse BMDM; 10 µM).
For CN(C)C[C@@H]1CCn2cc(c3ccccc32)C2=C(C(=O)NC2=O)c2cn(c3ccccc23)CCO1, the beat rate was 71.9% (iCell Cardiomyocytes (hiPSC-derived); xCELLigence Cardio impedance; concentration not given, 2 h; baseline: control).
COC(=O)[C@@H](CCSC)NCc1cc2ccccc2nc1SC has a growth of 92.7% (Pseudomonas aeruginosa; 32 µg/mL, without pentamidine; baseline: control).
Under “z-scored log2 fold change”, CCCCCCCCCC(=O)O is recorded as 1.42 (binding, equilibrium dialysis LC-MS; 5 µM, thermostabilized A2AR-BRIL construct; baseline: no-protein control, direction not given).
Cc1cccc(C)c1N(CC(=O)Nc1ccc(-c2ncon2)cc1)C(=O)C1CCS(=O)(=O)CC1 has a selectivity index of greater than 66.7 (human alphaherpesvirus 1; K26 GFP, 3D skin equivalent, air-liquid; baseline: CC50 over IC50).
C[C@]12O[C@H](C[C@]1(O)CO)n1c3ccccc3c3c4c(c5c6ccccc6n2c5c31)CNC4=O has a beat rate of 149% (iCell Cardiomyocytes (hiPSC-derived); xCELLigence Cardio impedance; concentration not given, 2 h; baseline: control).
CCn1cc(-c2cc(Cn3ccoc3=N)cc3c2CCN([C@@H](C)c2cc(OC)ccn2)C3=O)c(C(F)(F)F)n1 gave a pEC50 of 6.06 (AN3-CA; cell growth, inhibitor; 120 h).
For Oc1ccccc1-c1n[nH]cc1-c1ccnc2ccccc12, “log2 fold change” read 0.49 (TOR1 (Candida albicans); kinase binding, MIB/MS competition; Candida albicans lysate; 1 µM; baseline: DMSO).
The MIC50 of CN[C@H](CC(C)C)C(=O)N[C@H]1C(=O)N[C@@H](CC(N)=O)C(=O)N[C@H]2C(=O)N[C@H]3C(=O)N[C@H](C(=O)N[C@H](C(=O)O)c4cc(O)cc(O)c4-c4cc3ccc4O)[C@H](O)c3ccc(c(Cl)c3)Oc3cc2cc(c3O[C@@H]2O[C@H](CO)[C@@H](O)[C@H](O)[C@H]2O[C@H]2C[C@](C)(N)[C@H](O)[C@H](C)O2)Oc2ccc(cc2Cl)[C@H]1O is reported as 1 µg/mL (≈ 0.69 µM) (Staphylococcus epidermidis).
CC(C)NC(=O)[C@H]1CC[C@@H](n2/c(=N/C(=O)c3ccc(F)cc3)[nH]c3ccc(CN4CCC(C(C)(C)O)CC4)cc32)CC1 gave an inhibition of 6.72% (NLRP3 inflammasome (mouse); mouse BMDM; 10 µM).
O=c1ccn([C@H]2C[C@H](O)[C@@H](CO)O2)c(=O)[nH]1 — result for “z-scored log2 fold change”: 0.456 (binding, equilibrium dialysis LC-MS; 5 µM, thermostabilized A2AR-BRIL construct; baseline: no-protein control, direction not given).
With CNC(=O)c1ccc(-c2cnc3ncc(Cc4ccc5ncccc5c4)n3n2)cc1F the inhibition was -12.1% (NLRP3 inflammasome (mouse); mouse BMDM; 10 µM).
Under “z-scored log2 fold change”, CC(C)CC(=O)SCCNC(=O)CCNC(=O)[C@H](O)C(C)(C)COP(=O)(O)OP(=O)(O)OC[C@H]1O[C@@H](n2cnc3c(N)ncnc32)[C@H](O)[C@@H]1OP(=O)(O)O is recorded as -0.105 (binding, equilibrium dialysis LC-MS; 5 µM, thermostabilized A2AR-BRIL construct; baseline: no-protein control, direction not given).
Cn1c(Nc2ccc(C(F)(F)F)cc2)nc2cc(Oc3ccnc(-c4ncc(C(F)(F)F)[nH]4)c3)ccc21 has a cell index of 90.8% (iCell Cardiomyocytes (hiPSC-derived); cellular impedance; concentration not given, 24 h; baseline: control).

A few entries again:
OC(CCN1CCCCC1)(c1ccccc1)C1CC2C=CC1C2 (stereo not drawn): “EEG theta power, O1 Pz” 7.4 µV² (resting-state EEG; healthy elderly humans; oral, 4 mg, eyes closed, LS mean).
The inhibition of Cc1ccc(C(=O)Nc2ccc(Oc3cc4cnn(C)c4cc3-c3cn[nH]c3)c(F)c2)c(=O)n1-c1ccc(F)cc1 is reported as 29.4% (NLRP3 inflammasome (mouse); mouse BMDM; 10 µM).
Under “fold change in expression”, Cn1cc(-c2ccc(-c3cncc(Cl)c3N3CCC4(CCNC4=O)CC3)cc2)cn1 is recorded as 2.98 (COLO 205; microarray, item: CDKN1A; concentration not given, 6 h, gene set p21; baseline: untreated cells).
CC(C)C[C@H](NC(=O)C[C@H](O)[C@H](CC(C)C)NC(=O)[C@H](Cc1c[nH]cn1)NC(=O)CNC(=O)[C@@H](NC(=O)[C@H](C)NC(=O)[C@H](Cc1c[nH]c2ccccc12)NC(=O)[C@H](CCC(N)=O)NC(=O)[C@@H](Cc1ccccc1)NC(=O)COCCOCCNC(=O)CCC(C(=O)O)N1CCN(CC(=O)O)CCN(CC(=O)O)CCN(CC(=O)O)CC1)C(C)C)C(N)=O (stereo partly drawn) [lutetium-177 labelled] gave a tissue uptake of 0.05 %ID/g (female BALB/c nu/nu mice, spleen; intravenous, 50 pmol, 24 h).
The inhibition of CNC(=O)CN1CCC(Oc2cc3c(Nc4cccc(Cl)c4F)ncnc3cc2OC)CC1 is reported as -54.1% (NLRP3 inflammasome (mouse); mouse BMDM; 10 µM).
For c1coc(-c2n[nH]cc2-c2ccnc3ccccc23)c1, “log2 fold change” read -0.22 (orf19.6492 Candida albicans; kinase binding, MIB/MS competition; Candida albicans lysate; 1 µM; baseline: DMSO).
Under “z-scored log2 fold change”, NCCCCN=C(N)N is recorded as 0.426 (binding, equilibrium dialysis LC-MS; 5 µM, thermostabilized A2AR-BRIL construct; baseline: no-protein control, direction not given).
COc1cc(Nc2c(C#N)cnc3cc(OCCCN4CCN(C)CC4)c(OC)cc23)c(Cl)cc1Cl gave a cell index of 112% (iCell Cardiomyocytes (hiPSC-derived); cellular impedance; concentration not given, 24 h; baseline: control).
